Measurements gathered from unrelated publications.
Every numbered part comes from another study and shows a few of its results, in no order. Positions count from the first letter of the parent shown.

Sample 1 — technique: protein binding microarray; form: double-stranded DNA, one strand shown; medium: in vitro; tested at: not given; reference: not given; reading: higher = stronger binding; endpoint: E-score
Target: Histone acetyltransferase KAT6A, winged helix 2, GST fusion (KAT6A, Homo sapiens, UniProt Q92794, residues 85-181)
Setting: 8-mer, flanks averaged, mean of 2 arrays, mostly near background
Target sequence (chain): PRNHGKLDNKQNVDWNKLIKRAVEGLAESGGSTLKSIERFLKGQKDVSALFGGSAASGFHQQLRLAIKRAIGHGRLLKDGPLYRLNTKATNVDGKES
Strand = AGATCCTA; value = -0.0701
Strand = CCACGACG; value = 0.118
Strand = AAGAGGAC; value = -0.0861
Strand = GATCTACC; value = 0.102
Strand = AACAACTT; value = -0.00951
Strand = CGAATAAC; value = -0.0943
Strand = TAGTTTCA; value = -0.0619
Strand = ACCGAACG; value = 0.1
Strand = ACCCAATC; value = -0.0217
Strand = AGCCAGAC; value = 0.0187
Strand = GGCGGTCA; value = 0.131
Strand = GCTGGTAC; value = 0.0214
Strand = ACCGATAG; value = -0.0855
Strand = AAGTGAGA; value = 0.0766
Strand = GAGGCTTA; value = 0.033
Strand = GCCCAGAC; value = -0.114
Strand = AAAAAAAG; value = 0.267
Strand = GCACGGAC; value = 0.0559
Strand = CATAGGGC; value = -0.154
Strand = AGGGGAGG; value = 0.175
Strand = TACGACTA; value = -0.166

Sample 2 — technique: DHFR PCA, deep sequencing; medium: yeast; with: (+)-ABA 200 µM; reference: wild-type fitted maximum; reading: higher = stronger binding; endpoint: relative binding score
Target: ABI1, truncated, D143A, DHFR fusion (Arabidopsis thaliana)
Setting: methotrexate growth selection, single substitutions
Starting sequence: PYL1, truncated, DHFR fusion (Arabidopsis thaliana); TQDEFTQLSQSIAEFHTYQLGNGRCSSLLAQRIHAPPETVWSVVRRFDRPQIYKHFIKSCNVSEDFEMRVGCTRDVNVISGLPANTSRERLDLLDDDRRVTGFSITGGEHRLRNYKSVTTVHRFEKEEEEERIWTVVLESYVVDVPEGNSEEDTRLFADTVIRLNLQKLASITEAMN; partner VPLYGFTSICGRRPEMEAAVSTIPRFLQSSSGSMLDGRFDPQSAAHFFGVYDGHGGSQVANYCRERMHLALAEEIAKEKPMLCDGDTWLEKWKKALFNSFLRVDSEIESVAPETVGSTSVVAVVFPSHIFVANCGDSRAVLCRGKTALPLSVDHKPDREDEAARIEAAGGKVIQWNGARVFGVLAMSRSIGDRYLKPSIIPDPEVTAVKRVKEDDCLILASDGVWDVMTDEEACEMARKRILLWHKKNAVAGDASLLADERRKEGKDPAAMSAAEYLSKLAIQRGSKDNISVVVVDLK
Change = G107S; value = 91.8%
Change = N114F; value = 27.4%
Change = S104I; value = 42.9%
Change = Y18Q; value = 87.2%
Change = P50E; value = -6.61%
Change = R113A; value = 104%
Change = R132E; value = 114%
Change = V161C; value = 75.6%
Change = H55I; value = 104%
Change = E64K; value = 104%
Change = L20M; value = 97.6%
Change = M68E; value = 79.8%
Change = Q2V; value = 99.5%
Change = R111K; value = 88.3%
Change = E64N; value = 101%
Change = V78H; value = 26.7%
Change = L91K; value = 8.17%
Change = R32I; value = 89.6%
Change = I52C; value = 99.4%
Change = I52D; value = 99.7%
Change = Q51V; value = 58.2%
Change = A175T; value = 100%

Sample 3 — technique: RNA Bind-n-Seq; form: RNA; medium: in vitro; tested at: 100 nM; reference: input RNA pool; reading: higher = stronger binding; endpoint: bound/input enrichment
Target: RING finger protein unkempt homolog, zinc fingers 1-6, SBP tag (UNK, Homo sapiens, UniProt Q9C0B0, residues 30-357)
Chain of UniProt Q9C0B0 (30-357, looked up): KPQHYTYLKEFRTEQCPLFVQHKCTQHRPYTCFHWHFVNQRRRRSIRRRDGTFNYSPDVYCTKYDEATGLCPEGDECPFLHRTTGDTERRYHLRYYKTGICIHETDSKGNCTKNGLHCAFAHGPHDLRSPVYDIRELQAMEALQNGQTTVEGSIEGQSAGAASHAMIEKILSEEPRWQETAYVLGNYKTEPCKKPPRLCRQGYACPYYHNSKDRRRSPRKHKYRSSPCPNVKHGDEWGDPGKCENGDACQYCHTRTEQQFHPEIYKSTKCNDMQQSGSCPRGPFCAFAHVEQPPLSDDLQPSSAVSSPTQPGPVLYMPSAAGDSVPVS
Setting: RNA with constant flanks, vertebrate orthologous sites, ends assumed
All sequences stand within: GGGAGUUCUACAGUCCGACGAUC … CAACAGAGGAUUGAGCAUCA
Strand = AUGUAGUUCGUUUUUAAUUUCAAGCAAAAUCUUAUUGUACUUGAAUGUGCCCUGUUUUGUUAGCACACCUAGACUUGCUGUAACUGUACUCAUGUCCCAGUAUGUACGUUCUUUCUAUGA; value = 0.917 ratio
Strand = CUGAAGCUUUGUGUUUGGCUGCACCUGCAUAAGCUGCUACAAAUAGAAUAAAGAAUUUCAUAGCCUGUAUCUAUCAUUUAGAUGCAUGGAAAAAAAUGGGCUUUGCACACAAUGGGUUUG; value = 1.92 ratio
Strand = GUCCCUCAGUGACAGUAUGCCAUCAGUAGCGGAUUCCCACUCUAGUCAUUUCUCUGAAUUUAGCUGUUCUGACCUAGAAAGCAUGAAAACUUCUUGUAGUCAUGGUUCCACUGAUUAUCA; value = 1.56 ratio
Strand = CUUACUUAGAGGGAAAUAUAUGUUUCAUAAGGAAGAGUCUUGAUAAUUUUGUUUGUCAGAUAGUAUUUUGGAAUUUGUAUGAGGAUGUUUAGAAGCCUUAUAAGUGGCUUUUUUUAACAG; value = 0.38 ratio
Strand = GUGUUGGUGCAGAGUGCUCUGUACCAGUGCUCAUCGUCCCUUCUUCAUACCAACUGUCCUAGUUAUAGGGAUAUUUUUAAAAGUUUUACAUUGCUGUAUAUUCAAAGAAUUGUUUUAUUA; value = 0.434 ratio
Strand = GUGGGGAUCGGGGUGGGGUGGGAAGAAGAUGUAUGGAUGUUACUGGCAUUUUUAAGUGUUAAGAGUUUUUUGUGUUGUUGUUGUUUUUUUUCCUCUUGUUUUGUUCUUCCCCUUUAAUUA; value = 0.936 ratio
Strand = GCACAUGCCGCUAUCACCAAAAGCAAAUUGCCAUUUUUCAAAUUUCAUCCAGAGCCGUUUUAGUGUUUCCUAUUCCCUGCCCUUCCCAUUACUUUCAAUGAUGAAAGUUCUCCUCUGACA; value = 2.34 ratio
Strand = GUGAGGAGGGGGAAAGACGAGAUUAUUCUCCCACCCCAAAUAAAGCCGAUAUAAUUUGCUUUCAGUUCUGUCUUGGAAAACAGAGCUGGCCUUUUCUCUUAAUUGUGUAACAACAUCCUC; value = 0.623 ratio
Strand = GCAAUGAAAAAGCAGCCCUUCUCCCAGCCCCCUUUUCACUAGGAGAUACAAACGUUACCAUAGAAGAGCAAUUAAACUCAAUAAAUUUAUCUUUUCAGGAUGAUCCAGACUCCAGUACCA; value = 1.64 ratio
Strand = UGAGCGUCUAUCCGGUUGUAGAGAUAAUUCUUCACGAGGCACUUUGGCUCUAUUUAAUCGUAUUUACAUAUCUAUUUUUUAUAAAUAGCAGUAUAAAUUCUAAGGGGACUUGGUGUUUAU; value = 0.412 ratio
Strand = AUAAUCACUCUAAUUGUAUUCUGAAUAAAGUGUAACAUUGUGUAGCCUUUUUGUAUAAAAUAGACAAAUAGAAAUGGUCCGAUUAGUUUCCUUUUUAAUAUGCUUAAAAUAAGCAGGUGG; value = 1.51 ratio

Sample 4 — technique: Sort-seq; item: YFP reporter; medium: E. coli; setting: PhoQ-PhoP variant library; with: 10 µM Mg2+; reference: high Mg2+ state; reading: higher = stronger signaling; endpoint: fold induction
Molecule: PhoQ, residues 284 288 289 292 302 303 SCCLKL
target = PhoP, residues 12 14 15 18 19 NQCAL (Escherichia coli, UniProt P23836); value = 7.18
target = PhoP, residues 12 14 15 18 19 TQAML (Escherichia coli, UniProt P23836); value = 8.4
target = PhoP, residues 12 14 15 18 19 LHTVL (Escherichia coli, UniProt P23836); value = 0.946

Sample 5 — technique: RNA Bind-n-Seq; form: RNA; medium: in vitro; tested at: 365 nM; reference: no-protein control; reading: higher = stronger binding; endpoint: RBNS enrichment (R)
Target: RNA binding protein fox-1 homolog 2, RRM domain, GST-SBP tag (RBFOX2, Homo sapiens, UniProt O43251-10, residues 100-194)
Setting: natural RNA segment, single round, ends assumed
All sequences stand within: GGGAGUUCUACAGUCCGACGAUC … UGGAAUUCUCGGGUGCCAA
Target sequence (chain): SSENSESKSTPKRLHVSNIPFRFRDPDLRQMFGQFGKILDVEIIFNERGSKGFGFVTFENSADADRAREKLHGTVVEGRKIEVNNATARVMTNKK
Strand = ACCUUUCUGUUCUGUGGACUCGGUGCAGGUGGGUGGGGUGGUAAACAGUGGAAGAGCUCCUCCCCCCAAUUUUAUCCCAUUUUUUAAAAACCUCUCUCAACCAGUGAAAC; value = 0.88
Strand = GUAUAGAUUUCUAAGAACCAACACUACUCAGUCUCCUGCUAGUCUGACUCCUGAAGCAUCAGCCCUUGUCAUACUGUAUUGACUGUGUACGUGCCUUUCACCUUGAGCAU; value = 0.304
Strand = GUGGAACUGAAGUUUGAUUUAUUUUUGUACUACACGGCAUGGGUUUGUUGACACUUUAAUUUUGCUAUAAAUGUGUGGAAUCACAAGUUGCUGUGAUACUUCAUUUUUAA; value = 10.4
Strand = UUGCCAUCUAGAUGAGAGCUGCUCAGCCCAGGAAUCUCCCACUGUUUCCCCUGAGCAGUCUUCCUCAGGGCUCAGUGUACCCUCGGGAGACCCUGGGAGACCAAGGCAUU; value = 0.194
Strand = CCUCUAUCUUGCAUGGGAAGGAGGGAAAUAUGCGUUAUUUACUGUAAAAAAAUGGAAUUUAAAGGAAGGCUUGUGUCACCUUUUGACUAUAAAUAAAUCCUUUCUACUGG; value = 10.5
Strand = UAGGAAUACUCCUAAAACAGAUAUUGCCAACUAGAUACACUGCCUCAAUCUUGACCAGACAAGAGAACAGUUAAGUUCUCUCAGUUGGGUAGUAACUUGAAUACCAGUCU; value = 0.256
Strand = CUUUGACCUCCCAGAGGGCUGAACUCUUUCAACUCUGCGCUGCCCAGCCUUCUCAGUGGACUUGCCCCUCCUAAGCAGAGAAGGCCUAUGAGGUUGCUUGCUGCUGGGAA; value = 0.465
Strand = ACACACAUCUUGCUAGACUAGUAUAAAAAUCAUUGGGUAAUUGUUGGUUCUAAUGACCUGAAAGGUGUUCAGUUUUUGUUCUUGGUUUUGUUUUGUUUUUGAUUUCUUGG; value = 0.829
Strand = UGGUUUUGGAUGGAGUUAAACUUGAUGCCAGUGGGCAGUGCAUGUGGAAAGUAUCAGAGUAAGGCUCUCCCCUCCAGAGCCCUGAGUUUCUUGGCUGCAUGAAGGUUUUC; value = 12.2
Strand = GUUUGUUUUUGAAUGCCCUGUUUUCAUAGAAUCCUAUCCUCUCAGAUGGUGGAAUCUUUGGGGAAACUUUAAAGUAACUAAUUUUUAUUUAAAAAAAAAAUCUCGGCAGA; value = 1.59
Strand = CUCUCCUGUCUAUACAUACACACCUACUGAAUAGAAGCCUAGCUGACAGUCUCUGAAUAGUGGUUUUUCUAAUAAGAUGAGAUUUUUUUCUCUUGGGAAGUCACCUGUGA; value = 0.595
Strand = UUAUGAGUAGAAGCAAUAAGAAGGUGUCCUUAUGGUCUUAGGAAUAAUAGUUCCAAUGUAUUGGCAUAAUUUGUUUGAAUGUCUUUAUUUUGAUAUUAACACCGGCAUAA; value = 0.837

Sample 6 — target: CCNB1, cyclin fold, Cln2 fusion (human); technique: yeast growth competition, sequencing; medium: yeast; setting: weak parent motif; reference: not given; reading: higher = stronger binding; endpoint: normalised enrichment score
Starting sequence: TICRR docking peptide (human); TKVRRNLFNQELL
Change = R5K; value = 0.281
Change = L12A; value = 0.808
Change = R4A; value = -0.535
Change = R5K F8L; value = 0.397
Change = F8A; value = -0.435
Change = N6A; value = 0.647
Change = R5A L7A; value = 0.065
Change = V3A; value = -1.12
Change = L13A; value = 1.15
Change = K2A; value = 1.48

Excerpt of the above (sample 6):
Change = R5K; value = 0.281
Change = L12A; value = 0.808
Change = R4A; value = -0.535
Change = R5K F8L; value = 0.397
Change = F8A; value = -0.435
Change = N6A; value = 0.647
Change = R5A L7A; value = 0.065
Change = V3A; value = -1.12
